Published values from different studies.
± marks the error that the study gave. In brackets after ≈: the same amount, converted by molar mass.
Chain of UniProt Q9Y6E0 (whole entry, looked up): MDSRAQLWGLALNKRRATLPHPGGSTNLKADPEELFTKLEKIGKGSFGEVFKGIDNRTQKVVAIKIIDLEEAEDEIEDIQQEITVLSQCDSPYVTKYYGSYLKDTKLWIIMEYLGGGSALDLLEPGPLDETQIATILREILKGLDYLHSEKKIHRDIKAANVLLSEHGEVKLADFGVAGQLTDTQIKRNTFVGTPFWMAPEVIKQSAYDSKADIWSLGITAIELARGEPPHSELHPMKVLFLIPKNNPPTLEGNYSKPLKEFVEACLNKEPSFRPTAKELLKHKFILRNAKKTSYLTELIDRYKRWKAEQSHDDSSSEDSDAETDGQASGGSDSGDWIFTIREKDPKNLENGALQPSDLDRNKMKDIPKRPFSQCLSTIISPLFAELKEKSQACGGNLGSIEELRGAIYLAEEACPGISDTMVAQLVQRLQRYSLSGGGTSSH

`CNC(C)C1CCC(N)C(OC2C(N)CC(N)C(OC3OCC(C)(O)C(NC)C3O)C2O)O1` (stereo not drawn) has an MIC of 4 µg/mL (≈ 8.38 µM) (Salmonella enterica serovar Choleraesuis; broth microdilution; clinical isolate RKI-No 532/14-1).
`CC(=O)NC[C@H]1CN(c2ccc(N3CCOCC3)c(F)c2)C(=O)O1` gave an MIC of greater than 128 µg/mL (Staphylococcus cohnii; broth microdilution; L5; 18 h).
For `C[C@H]1[C@H](NC(=O)/C(=N\OC(C)(C)C(=O)O)c2csc(N)n2)C(=O)N1S(=O)(=O)O`, the MIC was 2 µg/mL (≈ 4.59 µM) (Proteus mirabilis; broth microdilution; 18 h).
The MIC of `C[C@H]1COc2c(N3CCN(C)CC3)c(F)cc3c(=O)c(C(=O)O)cn1c23` is reported as no more than 0.03 µg/mL (Proteus mirabilis; agar dilution; ATCC 49565 susceptible).
For `CC[C@H]1OC(=O)[C@H](C)[C@@H](O[C@H]2C[C@@](C)(OC)[C@@H](O)[C@H](C)O2)[C@H](C)[C@@H](O[C@@H]2O[C@H](C)C[C@H](N(C)C)[C@H]2O)[C@](C)(O)C[C@@H](C)C(=O)[C@H](C)[C@@H](O)[C@]1(C)O`, the MIC was greater than 128 µg/mL (Staphylococcus cohnii; broth microdilution; L5; 18 h).
`NC[C@H]1O[C@H](O[C@H]2[C@H](O)[C@@H](O[C@H]3O[C@H](CO)[C@@H](O)[C@H](N)[C@H]3O)[C@H](N)C[C@@H]2N)[C@H](O)[C@@H](O)[C@@H]1O` gave an MIC of 2 µg/mL (≈ 4.13 µM) (Proteus mirabilis; broth microdilution; 18 h).
For `CC[C@@H]1[C@H](F)C(=O)N[C@@H]1COc1nccc2cc(C(N)=O)c(OC)cc12`, the inhibition was -5.9% (Serine/threonine-protein kinase 24 (STK24, Homo sapiens, UniProt Q9Y6E0); ATP-site probe binding, ActivX profiling, measured: MST3; THP-1 cell lysate; 0.2 mM, Lys1 site).
For `CN1CC(O)=C(C(=O)NC(C(=O)NC2C(=O)N3C2SC(C)(C)C3C(=O)O)c2ccccc2)C1=O` (stereo not drawn), the MIC was 25 µg/mL (Escherichia coli; broth microdilution; ATCC 25922 wild type; together with: clavulanic acid 6 µg/mL).
For `O=C(O)CNC(=O)c1ccccc1`, “z-scored log2 fold change” read -1.11 (binding, equilibrium dialysis LC-MS; 5 µM, thermostabilized A2AR-BRIL construct; relative to: no-protein control, direction not given).
`N=C(N)NCCC[C@@H](NC(=O)CCOCCOCCNC(=O)[C@H](CCCCNC(=O)CC[C@H](NC(=O)c1ccc(NCc2cnc3nc(N)[nH]c(=O)c3n2)cc1)C(=O)O)NC(=O)CO/N=C/[C@H](F)[C@@H](O)[C@H](O)[C@H](O)CO)C(=O)NCC(=O)N[C@H](CC(=O)O)C(N)=O` [fluorine-18 labelled] has a tissue uptake of 2.05 ± 0.49 %ID/g (female nude mouse, kidney; intravenous, 1 µg, 2.5 h).
`Cn1cc(-c2ccc(-c3cncc(Cl)c3N3CCC4(CCNC4=O)CC3)cc2)cn1` — result for “log2 fold change”: -2.47 (COLO 205; gene expression, microarray, measured: SLC2A5 (GLUT5) mRNA; concentration not given, 2 h; relative to: untreated cells).
For `CC(C)C[C@H](NC(=O)C[C@H](O)[C@H](CC(C)C)NC(=O)[C@H](Cc1c[nH]cn1)NC(=O)CNC(=O)[C@@H](NC(=O)[C@H](C)NC(=O)[C@H](Cc1c[nH]c2ccccc12)NC(=O)[C@H](CCC(N)=O)NC(=O)[C@@H](Cc1ccccc1)NC(=O)COCCOCCNC(=O)CCC(C(=O)O)N1CCN(CC(=O)O)CCN(CC(=O)O)CCN(CC(=O)O)CC1)C(C)C)C(N)=O` (stereo partly drawn) [lutetium-177 labelled], the tissue uptake was 0.08 ± 0.04 %ID/g (female BALB/c nu/nu mice, bone; intravenous, 100 pmol, 2 h, together with: PA 300 µg).
The MIC of `CCCCCCCCCC(=O)N[C@@H](Cc1c[nH]c2ccccc12)C(=O)N[C@H](CC(N)=O)C(=O)N[C@@H](CC(=O)O)C(=O)N[C@@H]1C(=O)NCC(=O)N[C@@H](CCCN)C(=O)N[C@@H](CC(=O)O)C(=O)N[C@H](C)C(=O)N[C@@H](CC(=O)O)C(=O)NCC(=O)N[C@H](CO)C(=O)N[C@@H]([C@H](C)CC(=O)O)C(=O)N[C@@H](CC(=O)c2ccccc2N)C(=O)O[C@@H]1C` is reported as 1 µg/mL (Staphylococcus aureus; SH1000; together with: lysophosphatidylethanolamine, molar ratio 0.5).
The MIC of `O=C(N[C@H](CO)[C@H](O)c1ccc([N+](=O)[O-])cc1)C(Cl)Cl` is reported as greater than 128 µg/mL (Staphylococcus cohnii; broth microdilution; L5; 18 h).
The MIC of `CC1(C)S[C@@H]2[C@H](NC(=O)[C@H](N)c3ccccc3)C(=O)N2[C@H]1C(=O)O` is reported as greater than 16 µg/mL (Salmonella enterica serovar Derby; broth microdilution; clinical isolate RKI-No 270/14).
With `C[C@@H](O)[C@H]1C(=O)N2C(C(=O)O)=C(S[C@@H]3CN[C@H](C(=O)N(C)C)C3)[C@H](C)[C@H]12` the MIC was 0.5 µg/mL (≈ 1.3 µM) (Proteus mirabilis; broth microdilution; 18 h).
With `CC1(C)SC2C(NC(=O)C(NC(=O)C3=C(O)C(Cc4ccsc4)NC3=O)c3ccccc3)C(=O)N2C1C(=O)O` (stereo not drawn) the MIC was 12.5 µg/mL (Escherichia coli; broth microdilution; ATCC 25922 wild type; no clavulanic acid).
`Cc1cc(Nc2ccc(S(F)(F)(F)(F)F)cc2)n2nc(C(C)(F)F)nc2n1` — result for “patients with gastrointestinal disorders”: 36.4% (Plasmodium falciparum; P. falciparum malaria patients; oral, 250 mg).

Some of these lines once more:
`CNC(C)C1CCC(N)C(OC2C(N)CC(N)C(OC3OCC(C)(O)C(NC)C3O)C2O)O1` (stereo not drawn) has an MIC of 4 µg/mL (≈ 8.38 µM) (Salmonella enterica serovar Choleraesuis; broth microdilution; clinical isolate RKI-No 532/14-1).
